Assay results pooled from the literature.
A part holds a random share of what one study measured.
UniProt P54764, sequence (whole entry, looked up): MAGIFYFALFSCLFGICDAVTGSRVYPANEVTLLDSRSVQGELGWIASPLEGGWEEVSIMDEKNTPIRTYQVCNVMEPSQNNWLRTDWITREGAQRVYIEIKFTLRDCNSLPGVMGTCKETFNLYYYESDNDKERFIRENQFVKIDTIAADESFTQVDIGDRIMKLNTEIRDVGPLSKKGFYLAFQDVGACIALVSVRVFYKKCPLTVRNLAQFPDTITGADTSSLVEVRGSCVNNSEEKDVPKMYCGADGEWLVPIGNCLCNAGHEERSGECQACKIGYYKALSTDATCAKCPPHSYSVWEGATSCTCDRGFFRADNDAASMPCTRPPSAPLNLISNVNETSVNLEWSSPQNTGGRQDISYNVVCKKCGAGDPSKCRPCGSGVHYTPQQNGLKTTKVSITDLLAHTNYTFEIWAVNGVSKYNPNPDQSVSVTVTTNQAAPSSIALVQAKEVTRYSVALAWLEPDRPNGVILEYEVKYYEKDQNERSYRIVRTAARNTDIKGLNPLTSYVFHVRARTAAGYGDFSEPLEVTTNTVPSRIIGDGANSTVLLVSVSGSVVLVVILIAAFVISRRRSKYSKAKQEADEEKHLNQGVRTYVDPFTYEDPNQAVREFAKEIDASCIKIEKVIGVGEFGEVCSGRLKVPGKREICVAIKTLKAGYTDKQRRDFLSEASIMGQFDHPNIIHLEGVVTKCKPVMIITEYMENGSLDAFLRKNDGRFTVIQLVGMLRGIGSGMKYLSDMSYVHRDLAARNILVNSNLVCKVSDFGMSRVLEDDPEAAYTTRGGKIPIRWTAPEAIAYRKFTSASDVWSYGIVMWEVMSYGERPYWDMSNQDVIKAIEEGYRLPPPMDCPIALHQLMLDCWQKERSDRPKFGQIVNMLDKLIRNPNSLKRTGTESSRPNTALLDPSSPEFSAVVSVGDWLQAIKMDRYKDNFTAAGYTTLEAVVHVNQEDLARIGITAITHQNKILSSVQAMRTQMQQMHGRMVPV
UniProt Q9UK32, sequence (whole entry, looked up): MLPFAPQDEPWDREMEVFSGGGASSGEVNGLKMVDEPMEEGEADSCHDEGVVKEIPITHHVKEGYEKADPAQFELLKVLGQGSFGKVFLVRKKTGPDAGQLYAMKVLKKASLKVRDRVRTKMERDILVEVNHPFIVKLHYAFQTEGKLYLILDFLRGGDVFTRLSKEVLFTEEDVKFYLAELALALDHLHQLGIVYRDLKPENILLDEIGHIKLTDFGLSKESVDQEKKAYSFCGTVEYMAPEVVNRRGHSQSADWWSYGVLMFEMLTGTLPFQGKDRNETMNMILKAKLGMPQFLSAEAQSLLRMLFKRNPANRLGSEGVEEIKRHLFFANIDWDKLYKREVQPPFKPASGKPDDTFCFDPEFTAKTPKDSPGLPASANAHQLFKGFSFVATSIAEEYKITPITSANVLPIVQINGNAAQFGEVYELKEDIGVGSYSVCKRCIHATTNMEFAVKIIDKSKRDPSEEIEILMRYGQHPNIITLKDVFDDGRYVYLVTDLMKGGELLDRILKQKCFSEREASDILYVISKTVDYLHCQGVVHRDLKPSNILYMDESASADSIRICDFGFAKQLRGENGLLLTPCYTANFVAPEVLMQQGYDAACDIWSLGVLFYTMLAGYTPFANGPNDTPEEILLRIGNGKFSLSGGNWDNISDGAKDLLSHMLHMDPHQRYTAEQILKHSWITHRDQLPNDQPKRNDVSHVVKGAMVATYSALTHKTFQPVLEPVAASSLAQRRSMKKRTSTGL
UniProt O75747, sequence (whole entry, looked up): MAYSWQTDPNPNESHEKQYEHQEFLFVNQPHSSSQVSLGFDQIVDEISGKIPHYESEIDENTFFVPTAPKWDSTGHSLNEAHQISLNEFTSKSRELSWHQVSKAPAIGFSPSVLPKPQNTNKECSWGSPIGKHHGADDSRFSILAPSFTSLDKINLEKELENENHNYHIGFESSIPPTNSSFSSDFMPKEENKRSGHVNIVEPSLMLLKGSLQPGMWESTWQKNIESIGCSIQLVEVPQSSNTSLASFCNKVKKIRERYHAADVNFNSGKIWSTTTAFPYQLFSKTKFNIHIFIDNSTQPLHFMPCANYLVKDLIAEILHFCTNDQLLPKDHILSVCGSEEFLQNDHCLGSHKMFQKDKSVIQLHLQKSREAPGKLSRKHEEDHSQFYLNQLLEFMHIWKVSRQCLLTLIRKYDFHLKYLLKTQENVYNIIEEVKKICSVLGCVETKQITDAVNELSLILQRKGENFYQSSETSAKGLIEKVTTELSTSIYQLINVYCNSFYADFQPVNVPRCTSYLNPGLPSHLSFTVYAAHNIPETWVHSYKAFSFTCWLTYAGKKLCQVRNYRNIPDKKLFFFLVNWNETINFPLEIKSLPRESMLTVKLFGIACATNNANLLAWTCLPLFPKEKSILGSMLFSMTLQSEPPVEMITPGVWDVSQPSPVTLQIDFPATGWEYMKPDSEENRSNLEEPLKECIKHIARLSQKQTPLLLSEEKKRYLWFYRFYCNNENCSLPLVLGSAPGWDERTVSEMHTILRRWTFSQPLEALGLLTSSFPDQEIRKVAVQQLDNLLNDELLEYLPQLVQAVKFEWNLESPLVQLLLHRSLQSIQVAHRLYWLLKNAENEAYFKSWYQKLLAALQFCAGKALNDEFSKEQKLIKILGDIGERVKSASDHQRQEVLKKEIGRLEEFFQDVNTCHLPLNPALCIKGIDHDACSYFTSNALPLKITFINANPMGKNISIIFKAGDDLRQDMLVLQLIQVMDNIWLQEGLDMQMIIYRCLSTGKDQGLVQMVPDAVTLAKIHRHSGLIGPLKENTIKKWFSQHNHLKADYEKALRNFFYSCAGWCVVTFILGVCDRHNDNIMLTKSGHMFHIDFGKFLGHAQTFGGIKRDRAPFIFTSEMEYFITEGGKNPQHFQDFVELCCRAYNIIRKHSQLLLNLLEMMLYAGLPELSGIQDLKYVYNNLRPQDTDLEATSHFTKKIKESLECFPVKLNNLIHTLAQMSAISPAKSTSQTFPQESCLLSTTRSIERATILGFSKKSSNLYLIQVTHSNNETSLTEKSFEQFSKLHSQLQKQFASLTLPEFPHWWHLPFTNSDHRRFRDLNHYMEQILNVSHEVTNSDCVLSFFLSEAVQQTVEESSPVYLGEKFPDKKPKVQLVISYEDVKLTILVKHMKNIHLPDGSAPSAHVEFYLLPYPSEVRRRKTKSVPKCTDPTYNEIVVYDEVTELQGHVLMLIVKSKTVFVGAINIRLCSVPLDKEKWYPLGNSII
UniProt P10721, sequence (whole entry, looked up): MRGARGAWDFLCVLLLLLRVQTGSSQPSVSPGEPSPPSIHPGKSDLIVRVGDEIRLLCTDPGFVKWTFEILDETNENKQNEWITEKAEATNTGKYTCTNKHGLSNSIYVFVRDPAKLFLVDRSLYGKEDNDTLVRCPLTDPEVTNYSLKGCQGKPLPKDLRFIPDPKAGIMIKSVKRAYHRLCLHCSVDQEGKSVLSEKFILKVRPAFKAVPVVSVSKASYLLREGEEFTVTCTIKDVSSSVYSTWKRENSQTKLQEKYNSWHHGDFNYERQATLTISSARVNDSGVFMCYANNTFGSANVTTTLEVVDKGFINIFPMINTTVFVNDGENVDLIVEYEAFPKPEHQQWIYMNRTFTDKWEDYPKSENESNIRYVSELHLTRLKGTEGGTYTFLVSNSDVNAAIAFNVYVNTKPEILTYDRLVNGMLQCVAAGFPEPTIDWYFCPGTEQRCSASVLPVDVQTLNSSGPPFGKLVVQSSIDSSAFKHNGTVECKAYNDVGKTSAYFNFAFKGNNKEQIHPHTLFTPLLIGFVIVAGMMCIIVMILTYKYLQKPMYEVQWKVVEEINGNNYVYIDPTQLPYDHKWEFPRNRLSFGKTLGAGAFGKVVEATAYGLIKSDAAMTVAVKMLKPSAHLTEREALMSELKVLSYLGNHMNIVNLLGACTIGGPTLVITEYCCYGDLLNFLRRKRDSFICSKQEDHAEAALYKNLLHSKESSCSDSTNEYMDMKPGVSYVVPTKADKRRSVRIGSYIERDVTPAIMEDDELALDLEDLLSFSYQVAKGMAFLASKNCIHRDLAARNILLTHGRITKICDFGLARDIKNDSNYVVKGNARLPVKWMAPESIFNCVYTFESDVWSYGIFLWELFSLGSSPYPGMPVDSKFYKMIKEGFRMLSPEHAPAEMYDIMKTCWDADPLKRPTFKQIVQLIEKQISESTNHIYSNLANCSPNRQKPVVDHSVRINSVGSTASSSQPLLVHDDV
UniProt P06493, sequence (whole entry, looked up): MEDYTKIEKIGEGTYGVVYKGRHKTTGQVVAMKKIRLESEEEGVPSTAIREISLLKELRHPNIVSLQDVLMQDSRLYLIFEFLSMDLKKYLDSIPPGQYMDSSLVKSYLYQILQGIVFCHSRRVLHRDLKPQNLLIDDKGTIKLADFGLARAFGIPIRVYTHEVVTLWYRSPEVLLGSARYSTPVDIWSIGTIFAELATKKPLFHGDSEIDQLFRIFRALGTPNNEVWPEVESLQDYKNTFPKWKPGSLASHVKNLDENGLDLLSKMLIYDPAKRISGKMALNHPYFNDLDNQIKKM
UniProt Q15760, sequence (whole entry, looked up): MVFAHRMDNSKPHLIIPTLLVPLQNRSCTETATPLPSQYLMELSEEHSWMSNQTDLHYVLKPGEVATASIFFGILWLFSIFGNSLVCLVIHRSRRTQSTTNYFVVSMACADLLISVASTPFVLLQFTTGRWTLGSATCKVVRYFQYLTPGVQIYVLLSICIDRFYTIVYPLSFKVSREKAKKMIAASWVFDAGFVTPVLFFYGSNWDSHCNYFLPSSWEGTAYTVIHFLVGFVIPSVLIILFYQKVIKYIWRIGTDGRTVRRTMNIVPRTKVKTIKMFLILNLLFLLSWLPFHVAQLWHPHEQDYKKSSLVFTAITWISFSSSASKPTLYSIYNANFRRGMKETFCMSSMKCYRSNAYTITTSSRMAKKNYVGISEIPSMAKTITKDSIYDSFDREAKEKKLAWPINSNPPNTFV

Set 1
Structure (SMILES): CCOCCn1cc(C(=O)Nc2ccc(-n3nc(-c4cccnc4)cc3C(F)(F)F)cn2)ccc1=O
Concentration: 1 µM
For RIOK1 (Homo sapiens, UniProt Q9BRS2); cell-free assay, competition with immobilised ligand: remaining binding read 100%.
For MARK1 (Homo sapiens, UniProt Q9P0L2); cell-free assay, competition with immobilised ligand: remaining binding read 100%.
For EPHA4 (Homo sapiens, UniProt P54764); cell-free assay, competition with immobilised ligand: remaining binding read 91%.
The remaining binding was 73% (PRKCI (Homo sapiens, UniProt P41743); cell-free assay, competition with immobilised ligand).
TESK1 (Homo sapiens, UniProt Q15569); cell-free assay, competition with immobilised ligand — remaining binding: 85%.
The remaining binding was 83% (DCLK1 (Homo sapiens, UniProt O15075); cell-free assay, competition with immobilised ligand).
For Ribosomal protein S6 kinase alpha-6, N-terminal kinase domain (RPS6KA6, Homo sapiens, UniProt Q9UK32); cell-free assay, competition with immobilised ligand: remaining binding read 81%.
Tyrosine-protein kinase ABL1, phosphorylated (ABL1, Homo sapiens, UniProt P00519, H396P); cell-free assay, competition with immobilised ligand — remaining binding: 94%.
The remaining binding was 89% (Mast/stem cell growth factor receptor Kit, autoinhibited (KIT, Homo sapiens, UniProt P10721); cell-free assay, competition with immobilised ligand).
The remaining binding was 100% (DYRK2 (Homo sapiens, UniProt Q92630); cell-free assay, competition with immobilised ligand).
The remaining binding was 100% (CAMK2G (Homo sapiens, UniProt Q13555); cell-free assay, competition with immobilised ligand).
It gave 100% for remaining binding (BRSK2 (Homo sapiens, UniProt Q8IWQ3); cell-free assay, competition with immobilised ligand).
It gave 100% for remaining binding (PRKCE (Homo sapiens, UniProt Q02156); cell-free assay, competition with immobilised ligand).
The remaining binding was 74% (Tyrosine-protein kinase ABL1, non-phosphorylated (ABL1, Homo sapiens, UniProt P00519, F317I); binding, competition with immobilised ligand).
It gave 84% for remaining binding (EIF2AK1 (Homo sapiens, UniProt Q9BQI3); cell-free assay, competition with immobilised ligand).
The remaining binding was 100% (CDKL2 (Homo sapiens, UniProt Q92772); cell-free assay, competition with immobilised ligand).
NUAK1 (Homo sapiens, UniProt O60285); cell-free assay, competition with immobilised ligand — remaining binding: 100%.
The remaining binding was 85% (PIK3C2G (Homo sapiens, UniProt O75747); cell-free assay, competition with immobilised ligand).
PIK3CA (Homo sapiens, UniProt P42336, M1043I); cell-free assay, competition with immobilised ligand — remaining binding: 100%.
The remaining binding was 67% (ZAP70 (Homo sapiens, UniProt P43403); cell-free assay, competition with immobilised ligand).
The remaining binding was 100% (STK32B (Homo sapiens, UniProt Q9NY57); cell-free assay, competition with immobilised ligand).
The remaining binding was 100% (NEK2 (Homo sapiens, UniProt P51955); cell-free assay, competition with immobilised ligand).
The remaining binding was 90% (COQ8A (Homo sapiens, UniProt Q8NI60); cell-free assay, competition with immobilised ligand).
It gave 91% for remaining binding (CDC42BPG (Homo sapiens, UniProt Q6DT37); competition binding).
For ULK2 (Homo sapiens, UniProt Q8IYT8); cell-free assay, competition with immobilised ligand: remaining binding read 74%.

Set 2
Target: Diamine acetyltransferase 1 (Homo sapiens, UniProt P21673)
Action: inhibitor
Concentration: 10 µM
Baseline: control
Target sequence (P21673 1-171): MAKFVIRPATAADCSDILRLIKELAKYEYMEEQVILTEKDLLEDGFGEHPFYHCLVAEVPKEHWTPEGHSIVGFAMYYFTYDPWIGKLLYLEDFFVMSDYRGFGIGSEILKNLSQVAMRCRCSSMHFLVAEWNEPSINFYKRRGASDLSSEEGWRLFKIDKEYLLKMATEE
For `CC(C)=CCC/C(C)=C/C=O`, the remaining activity was 102%.
`CC(=O)c1ccccc1` gave a remaining activity of 86.1%.
With `CC[C@H](CC[C@@H](C)[C@H]1CC[C@H]2[C@@H]3CC=C4C[C@@H](O[C@@H]5O[C@H](CO)[C@@H](O)[C@H](O)[C@H]5O)CC[C@]4(C)[C@H]3CC[C@]12C)C(C)C` the remaining activity was 88%.
The remaining activity of `C[C@@H](O)[C@@H](C)O` is reported as 89.7%.
With `O=c1oc2ccccc2cc1O` the remaining activity was 93.9%.
The remaining activity of `O=Cc1ccc(O)cc1` is reported as 106%.
With `O=C(/C=C/c1ccc(O)c(O)c1)OC[C@@H](O)CO[C@@H]1O[C@H](CO)[C@@H](O)[C@H](O)[C@H]1O` the remaining activity was 97.9%.
The remaining activity of `C=C1CC[C@]2(C)CC[C@]3(C)[C@H](CC[C@@H]4[C@@]5(C)CC[C@H](O)C(C)(C)[C@@H]5CC[C@]43C)[C@H]2[C@@H]1C` is reported as 75.3%.
`C=CCCCCCCCCC(=O)O` has a remaining activity of 83.4%.
With `CCCCC/C=C\C/C=C\CCCCCCCC(=O)OC` the remaining activity was 96.8%.
With `COc1c(O)c(C)cc2c1C(=O)c1c(O)cccc1C2=O` the remaining activity was 87.6%.
For `COC(=O)C1=CO[C@@H](O[C@@H]2O[C@H](CO)[C@@H](O)[C@H](O)[C@H]2O)[C@@H]2C(CO)=C[C@H](O)[C@H]12`, the remaining activity was 77.5%.
For `C[C@@H]1O[C@@H](O[C@H]2[C@H](Oc3cc(O)c4c(c3)O[C@H](c3ccc(O)cc3)CC4=O)O[C@H](CO)[C@@H](O)[C@@H]2O)[C@H](O)[C@H](O)[C@H]1O`, the remaining activity was 85.9%.
The remaining activity of `COc1cc2c(cc1O)CC[N+](C)(C)[C@@H]2Cc1ccc(O)cc1` is reported as 115%.
The remaining activity of `O=C(c1c(O)cc(O)cc1O)C(c1coc2cc(O)cc(O)c2c1=O)C(c1ccc(O)cc1)c1ccc(O)cc1` (centres unmarked) is reported as 91.9%.
For `OC[C@H]1O[C@@](CO)(OC[C@@]2(OC[C@@]3(OC[C@@]4(OC[C@@]5(O[C@H]6O[C@H](CO)[C@@H](O)[C@H](O)[C@H]6O)O[C@H](CO)[C@@H](O)[C@@H]5O)O[C@H](CO)[C@@H](O)[C@@H]4O)O[C@H](CO)[C@@H](O)[C@@H]3O)O[C@H](CO)[C@@H](O)[C@@H]2O)[C@@H](O)[C@@H]1O`, the remaining activity was 109%.
`C[C@@H]1O[C@@H](OC[C@H]2O[C@@H](Oc3c(-c4ccc(O)c(O)c4)oc4cc(O)cc(O)c4c3=O)[C@H](O)[C@@H](O)[C@@H]2O)[C@H](O)[C@H](O)[C@H]1O` gave a remaining activity of 100%.
The remaining activity of `O=c1oc2c(O)c(O)cc3c(=O)oc4c(O)c(O)cc1c4c23` is reported as 96%.

Set 3
Structure (SMILES): CC(C)N(CCC(=O)c1ccc2ccccc2c1)Cc1ccccc1
Read-out: enzyme activity
Action: inhibitor
Concentration: 0.5 µM
Baseline: control
STK16 (Homo sapiens, UniProt O75716) — remaining activity: 91.6%.
The remaining activity was 107% (HIPK2 (Homo sapiens, UniProt Q9H2X6)).
For HIPK4 (Homo sapiens, UniProt Q8NE63): remaining activity read 107%.
CAMK2B (Homo sapiens, UniProt Q13554) — remaining activity: 96.6%.
For EPHB1 (Homo sapiens, UniProt P54762): remaining activity read 96.8%.
The remaining activity was 96.7% (MAP4K4 (Homo sapiens, UniProt O95819)).
It gave 108% for remaining activity (AXL (Homo sapiens, UniProt P30530)).
The remaining activity was 107% (PRKACG (Homo sapiens, UniProt P22612)).
It gave 102% for remaining activity (EPHB4 (Homo sapiens, UniProt P54760)).
The remaining activity was 100% (TSSK2 (Homo sapiens, UniProt Q96PF2)).
It gave 97.4% for remaining activity (RPS6KA6 (Homo sapiens, UniProt Q9UK32)).
For Cyclin-dependent kinase 6, with cyclin D3 (CDK6, Homo sapiens, UniProt Q00534): remaining activity read 102%.
The remaining activity was 103% (SRMS (Homo sapiens, UniProt Q9H3Y6)).
The remaining activity was 104% (STK17A (Homo sapiens, UniProt Q9UEE5)).
It gave 91.6% for remaining activity (PHKG1 (Homo sapiens, UniProt Q16816)).
The remaining activity was 107% (DYRK3 (Homo sapiens, UniProt O43781)).
It gave 95.7% for remaining activity (MAPKAPK3 (Homo sapiens, UniProt Q16644)).
For Cyclin-dependent kinase 4, with cyclin D3 (CDK4, Homo sapiens, UniProt P11802): remaining activity read 92.4%.
It gave 106% for remaining activity (BLK (Homo sapiens, UniProt P51451)).
EPHA4 (Homo sapiens, UniProt P54764) — remaining activity: 94.5%.
Cyclin-dependent kinase 1, with cyclin B (CDK1, Homo sapiens, UniProt P06493) — remaining activity: 104%.
For RPS6KA5 (Homo sapiens, UniProt O75582): remaining activity read 102%.
The remaining activity was 97% (WNK3 (Homo sapiens, UniProt Q9BYP7)).

Set 4
Compound: CC(C)CN(C)c1nc(N)c(C(=O)N=C(N)N)nc1Cl
Read-out: β-arrestin recruitment
Action: agonist
Method: PRESTO-Tango
Concentration: 10 µM
Baseline: untreated
Adhesion G protein-coupled receptor D2 (ADGRD2, Homo sapiens, UniProt Q7Z7M1) — “fold over basal”: 0.64.
CCR8 (Homo sapiens, UniProt P51685) — “fold over basal”: 0.66.
HTR4 (Homo sapiens, UniProt Q13639) — “fold over basal”: 0.71.
G-protein coupled receptor 83 (GPR83, Homo sapiens, UniProt Q9NYM4) — “fold over basal”: 0.63.
The “fold over basal” was 0.86 (GPR39 (Homo sapiens, UniProt O43194)).
The “fold over basal” was 1.25 (Mas-related G-protein coupled receptor member F (MRGPRF, Homo sapiens, UniProt Q96AM1)).
The “fold over basal” was 7.83 (ACKR3 (Homo sapiens, UniProt P25106)).
For ADGRG2 (Homo sapiens, UniProt Q8IZP9): “fold over basal” read 0.94.
The “fold over basal” was 0.67 (CRHR2 (Homo sapiens, UniProt Q13324)).
The “fold over basal” was 1.68 (Probable G-protein coupled receptor 19 (GPR19, Homo sapiens, UniProt Q15760)).
Probable G-protein coupled receptor 141 (GPR141, Homo sapiens, UniProt Q7Z602) — “fold over basal”: 0.92.
It gave 1.03 for “fold over basal” (ADRA1B (Homo sapiens, UniProt P35368)).
For MCHR1 (Homo sapiens, UniProt Q99705): “fold over basal” read 1.11.
It gave 0.54 fold for “fold over basal” (TSHR (Homo sapiens, UniProt P16473)).
It gave 0.63 fold for “fold over basal” (Trace amine-associated receptor 2 (TAAR2, Homo sapiens, UniProt Q9P1P5)).
For ADRB1 (Homo sapiens, UniProt P08588): “fold over basal” read 0.96.
For TRHR (Homo sapiens, UniProt P34981): “fold over basal” read 1.4 fold.

Repeated from above (set 1):
It gave 100% for remaining binding (BRSK2 (Homo sapiens, UniProt Q8IWQ3); cell-free assay, competition with immobilised ligand).
It gave 100% for remaining binding (PRKCE (Homo sapiens, UniProt Q02156); cell-free assay, competition with immobilised ligand).
The remaining binding was 74% (Tyrosine-protein kinase ABL1, non-phosphorylated (ABL1, Homo sapiens, UniProt P00519, F317I); binding, competition with immobilised ligand).
It gave 84% for remaining binding (EIF2AK1 (Homo sapiens, UniProt Q9BQI3); cell-free assay, competition with immobilised ligand).
The remaining binding was 100% (CDKL2 (Homo sapiens, UniProt Q92772); cell-free assay, competition with immobilised ligand).
NUAK1 (Homo sapiens, UniProt O60285); cell-free assay, competition with immobilised ligand — remaining binding: 100%.
